Measured values of several laboratories.
Protocols differ between the studies behind these lines. “And” joins repeats or separate records; there may be more than shown. Numbers after ± are the reported error. In brackets after ≈: the same amount, converted by molar mass.

| Compound | organism | test | system | setting | how to read | quantity | result |
| --- | --- | --- | --- | --- | --- | --- | --- |
| COc1ccc(-c2nnc(NC(=O)c3cccc([N+](=O)[O-])c3)s2)cc1OC | Tetrahymena pyriformis and Klebsiella pneumoniae | virulence in co-culture | – | – | – | IC50 | 1770 nM |
| N=C(N)c1ccc(OCCC(CCOc2ccc(C(=N)N)cc2)c2ccccc2)cc1 (stereo not shown) | Escherichia coli | checkerboard | BW25113 mcr-1 plasmid | unit not given, added: rifampicin | lower = stronger synergy | FICI | ≤ 0.063 |
| COc1ccc(C(=O)O)cc1NC(=O)/C=C/c1ccc(-c2ccccc2C)cc1 | Tetrahymena pyriformis and Klebsiella pneumoniae | virulence in co-culture | – | – | – | IC50 | 290 nM |
| CCCCc1ccc(CNc2nc(N(C)C)nc(N(C)C)c2/N=N/c2ccc(Cl)cc2)cc1 | Ostrinia furnacalis | leaf dipping | – | 50 mg/L | – | mortality | 66.7% |
| CS(=O)(=O)CCCn1c(Cn2c(=O)n(CC(F)(F)F)c3ccncc32)cc2cc(Cl)ccc21 | respiratory syncytial virus | RT-qPCR | hospitalized infants 1-24 months, nasal swab | oral, 2, 1.5 or 1 mg/kg daily, day 3, low dose by age cohort | relative to: placebo | LS mean difference vs placebo | -2.23 log10 copies/mL |
| COc1cccc(C(=O)NN(C(=O)c2cc(C)cc(C)c2)C(C)(C)C)c1C | Anopheles gambiae | – | G3, lab susceptible | topical, 0.4 % | relative to: control | adult lifespan | decreased |
| Cc1nnc(-c2ccccc2)nc1O | Tetrahymena pyriformis and Klebsiella pneumoniae | virulence in co-culture | – | – | – | IC50 | 4490 nM |
| NC[C@H]1O[C@H](O[C@H]2[C@H](O)[C@@H](O[C@H]3O[C@H](CO)[C@@H](O)[C@H](N)[C@H]3O)[C@H](N)C[C@@H]2N)[C@H](O)[C@@H](O)[C@@H]1O | Acinetobacter baumannii | colony counting | 19606, biofilm | 50 µg/mL, 12 h, added: HNP1 8 µM | – | survival | 7.11% and 7.8% and 5.48% and 5.64% and 5.32% and 7.7% |
| COC1=CC(c2ccc[nH]2)=N/C1=C\c1cc(-c2ccc(OC(F)(F)F)cc2)c(C)[nH]1.Cl | Plasmodium yoelii | – | CF1 mice | oral, 10 mg/kg daily for 4 days, day 5 | relative to: vehicle | parasitaemia reduction | 100% |
| COc1cc2cc(C(=O)Nc3ccccc3)c(N)nc2cc1OC | Plasmodium yoelii | oxygen consumption | 17XL | 2 µM | – | inhibition | 20% |
| CC[C@H](C)[C@H](NC(=O)[C@H](CC(N)=O)NC(=O)[C@H](CCCCN)NC(=O)[C@H](CC(=O)O)NC(=O)[C@H](Cc1ccc(O)cc1)NC(=O)[C@H](Cc1ccc(O)cc1)NC(=O)[C@H](Cc1ccc(O)cc1)NC(=O)[C@H](CCCNC(=N)N)NC(=O)[C@H](CC(C)C)NC(=O)CNC(=O)[C@H](CCCNC(=N)N)NC(=O)[C@@H](N)CO)C(=O)N[C@H](C(=O)N[C@@H](Cc1c[nH]cn1)C(=O)N[C@@H](CCCCN)C(=O)N[C@H](C(=O)N[C@@H](C)C(=O)NCC(=O)N[C@@H](CCCCN)C(=O)N[C@@H](CCCNC(=N)N)C(=O)N[C@@H](Cc1ccc(O)cc1)C(=O)N[C@H](C(=O)N[C@@H](Cc1ccc(O)cc1)C(=O)N[C@@H](CCCNC(=N)N)C(=O)N[C@@H](Cc1ccccc1)C(=O)N[C@H](C(=O)O)C(C)C)C(C)C)[C@@H](C)O)[C@@H](C)CC | Staphylococcus haemolyticus | – | – | – | – | MBC | 64 µg/mL (≈ 19.6 µM) |
| O=[N+]([O-])c1cnc2ccc(F)cc2c1O | Tetrahymena pyriformis and Klebsiella pneumoniae | virulence in co-culture | – | – | – | IC50 | 580 nM |
| Nc1ncnc2c1ncn2[C@@H]1O[C@@H]2COP(=O)(O)O[C@H]3[C@@H](O)[C@H](n4cnc5c(=O)[nH]cnc54)O[C@@H]3COP(=O)(O)O[C@H]2[C@H]1O | West Nile virus | RNA sequencing, refers to: interactions, syndecan, R-HSA-3000170 | HFF-1 cells | concentration not given, downregulated pathway | relative to: WNV-infected untreated cells | fold enrichment | 10.5 |
| Cc1[nH]c(/C=C2\N=C(c3ccc[nH]3)C=C2OC(C)C)cc1Cc1ccc(OC(F)(F)F)cc1.Cl | Plasmodium yoelii | – | CF1 mice | oral, 10 mg/kg daily for 4 days, day 5 | relative to: vehicle | parasitaemia reduction | 100% |
| CCCCCCn1nnc2c1CCN(c1ccc(F)cc1)C2 | human adenovirus 2 | viral replication | HEL | – | – | EC50 | > 100 µM |
| CNCCN(C)C(=O)Oc1c(Br)c(C)nc(C)c1-c1ccc(Oc2ccc(OC(F)(F)F)cc2)cc1 | Plasmodium yoelii | – | 17XL | 384-well | – | IC50 | 229 ± 113 nM |
| CC(C)(C)Oc1ccc(CC2NC(=O)C(C(=O)NC(C(=O)NC3C(=O)N4C3SC(C)(C)C4C(=O)O)c3ccccc3)=C2O)cc1 (stereo not shown) | Escherichia coli | broth microdilution | isolate IU, CTX-M-14, TEM-1 | added: clavulanic acid 6 µg/mL | – | MIC | > 200 µg/mL |
| Cn1c(=O)ccc2ccc(F)c(CCNC[C@H]3CN(c4cnc5c(n4)NC(=O)CO5)C(=O)O3)c21 | Salmonella sp. | – | – | – | – | MIC50 | 0.12 µg/mL (≈ 0.256 µM) |
| Cc1ccnc2nc(C(=O)Nc3nc4ccc(Oc5ccccc5)cc4s3)nn12 | Tetrahymena pyriformis and Klebsiella pneumoniae | virulence in co-culture | – | – | – | IC50 | 340 nM |

| Compound | organism | test | system | setting | how to read | quantity | result |
| --- | --- | --- | --- | --- | --- | --- | --- |
| CC[C@H](C)[C@H](NC(=O)[C@H](C)NC(=O)[C@H](CCCCN)NC(=O)[C@H](CC(C)C)NC(=O)[C@H](C)NC(=O)[C@@H](NC(=O)[C@H](Cc1c[nH]cn1)NC(=O)[C@H](CC(C)C)NC(=O)[C@@H](NC(=O)[C@@H](NC(=O)[C@H](CCCCN)NC(=O)[C@H](C)NC(=O)[C@H](C)NC(=O)[C@H](CO)NC(=O)[C@H](CCCCN)NC(=O)[C@H](Cc1ccccc1)NC(=O)[C@@H](NC(=O)[C@H](CCCCN)NC(=O)[C@H](CC(C)C)NC(=O)[C@H](Cc1ccccc1)NC(=O)[C@H](CO)NC(=O)[C@H](CCCCN)NC(=O)[C@H](Cc1c[nH]c2ccccc12)NC(=O)[C@H](CCCCN)NC(C)=O)[C@@H](C)O)[C@@H](C)O)C(C)C)[C@@H](C)O)C(=O)N[C@@H](CO)C(=O)N[C@@H](CO)C(N)=O | Streptococcus pyogenes | – | ATCC 19615 | 1 strain | – | MIC geometric mean | 8 µg/mL (≈ 2.73 µM) |
| COc1ccc2c(ccc3oc([N+](=O)[O-])c(C)c32)c1 | Klebsiella aerogenes | REMA | – | – | – | MIC90 | > 32 µg/mL |
| O=C(O)c1cccc(C(=O)O)n1 | Klebsiella aerogenes | – | VIM-1 producer | 32 µg/mL, added: meropenem | – | meropenem MIC | 0.5 µg/mL |
| COc1cc(-c2nc(-c3ccccc3)c(-c3ccccc3)[nH]2)cc(OC)c1O | Plasmodium yoelii | oxygen consumption | 17XL | 2 µM | – | inhibition | 0% |
| C=C(CN(C(=O)c1c(C(F)F)nn(C)c1F)C1CC1)c1ccc(Cl)cc1Cl | Fusarium oxysporum | – | – | 1.56 mg/L | – | colony diameter | 10 mm and 11 mm and 13 mm and 12 mm |
| CC(C)C1NC(=O)C(C(=O)NC(C(=O)NC2C(=O)N3C2SC(C)(C)C3C(=O)O)c2ccccc2)=C1O (stereo not shown) | Escherichia coli | broth microdilution | JW0790-2 fiu deletion mutant | ferric iron uptake gene | – | MIC | 25 µg/mL (≈ 48.4 µM) |
| COC1=CC(c2ccc[nH]2)=N/C1=C\c1[nH]c(-c2ccc(Cl)cc2)cc1-c1ccc(Cl)cc1 | Plasmodium yoelii | – | CF1 mice | oral, 10 mg/kg daily for 4 days, day 5 | relative to: vehicle | parasitaemia reduction | 0% |
| COc1cc(NC(=O)Cn2ccc3cc(F)c(-c4cnn(C)c4)cc32)cc(OC)c1OC | Plasmodium falciparum | parasite growth | Dd2-B2 parent | – | – | IC90 | 9.1 nM |
| COC1=CC(c2ccc[nH]2)=N/C1=C\c1[nH]c(C)cc1-c1ccc(Cl)cc1.Cl | Plasmodium yoelii | – | CF1 mice | oral, 25 mg/kg daily for 4 days, day 5 | relative to: vehicle | parasitaemia reduction | 100% |
| CCCN/C(=N/C)c1ccc(NC(=O)c2ccc(C(=O)Nc3ccc(/C(=N\C)NCCC)cc3)cc2)cc1 | Tetrahymena pyriformis and Klebsiella pneumoniae | virulence in co-culture | – | – | – | IC50 | 13500 nM |
| Cc1c([N+](=O)[O-])oc2ccc3ccccc3c12 | Mycolicibacterium aurum | REMA | ATCC 23366 | – | – | MIC90 | 0.5 µg/mL (≈ 2.2 µM) |
| C[C@@H]1O[C@@H](O[C@H]2C[C@@H](O)[C@]3(CO)[C@H]4[C@H](O)C[C@]5(C)[C@@H](C6=CC(=O)OC6)CC[C@]5(O)[C@@H]4CC[C@]3(O)C2)[C@H](O)[C@H](O)[C@H]1O | Oncopeltus fasciatus | – | – | diet, concentration not given | – | eggs per female | 341 |
| Nc1c([N+](=O)[O-])oc2ccc3ccccc3c12 | Klebsiella aerogenes | REMA | – | – | – | MIC90 | > 32 µg/mL |
| CCOC(=O)C1(Cc2ccc(F)cc2)CN(c2ccccc2)Cc2nnn(Cc3cccc(F)c3)c21 (stereo not shown) | human adenovirus 2 | viral replication | HEL | – | – | EC50 | > 100 µM |
| O=[N+]([O-])c1cc2c(ccc3cc(Br)ccc32)o1 | Klebsiella aerogenes | REMA | – | – | – | MIC90 | > 32 µg/mL |
| [O-][N+]1=C(c2ccc(Cl)cc2)C2=NCCN2c2ccccc21 | Prevotella spp. | bacterial growth | – | – | – | MIC50 | ≤ 0.06 µg/mL |
| COc1ccc2c(ccc3oc([N+](=O)[O-])cc32)c1 | Klebsiella aerogenes | REMA | – | – | – | MIC90 | > 32 µg/mL |
| CC(C)CC(=O)OC[C@H]1O[C@@](C#N)(c2ccc3c(N)ncnn23)[C@H](O)[C@@H]1O | human respiratory syncytial virus | RT-PCR | A2, BALB/c mouse | oral, twice daily, dose not given, day 4 post-infection | – | lung viral RNA reduction | 1.47 log10 |

Repeated from above:
| Compound | organism | test | system | setting | how to read | quantity | result |
| --- | --- | --- | --- | --- | --- | --- | --- |
| CC(C)(C)Oc1ccc(CC2NC(=O)C(C(=O)NC(C(=O)NC3C(=O)N4C3SC(C)(C)C4C(=O)O)c3ccccc3)=C2O)cc1 (stereo not shown) | Escherichia coli | broth microdilution | isolate IU, CTX-M-14, TEM-1 | added: clavulanic acid 6 µg/mL | – | MIC | > 200 µg/mL |
| C[C@@H]1O[C@@H](O[C@H]2C[C@@H](O)[C@]3(CO)[C@H]4[C@H](O)C[C@]5(C)[C@@H](C6=CC(=O)OC6)CC[C@]5(O)[C@@H]4CC[C@]3(O)C2)[C@H](O)[C@H](O)[C@H]1O | Oncopeltus fasciatus | – | – | diet, concentration not given | – | eggs per female | 341 |
| CC[C@H](C)[C@H](NC(=O)[C@H](C)NC(=O)[C@H](CCCCN)NC(=O)[C@H](CC(C)C)NC(=O)[C@H](C)NC(=O)[C@@H](NC(=O)[C@H](Cc1c[nH]cn1)NC(=O)[C@H](CC(C)C)NC(=O)[C@@H](NC(=O)[C@@H](NC(=O)[C@H](CCCCN)NC(=O)[C@H](C)NC(=O)[C@H](C)NC(=O)[C@H](CO)NC(=O)[C@H](CCCCN)NC(=O)[C@H](Cc1ccccc1)NC(=O)[C@@H](NC(=O)[C@H](CCCCN)NC(=O)[C@H](CC(C)C)NC(=O)[C@H](Cc1ccccc1)NC(=O)[C@H](CO)NC(=O)[C@H](CCCCN)NC(=O)[C@H](Cc1c[nH]c2ccccc12)NC(=O)[C@H](CCCCN)NC(C)=O)[C@@H](C)O)[C@@H](C)O)C(C)C)[C@@H](C)O)C(=O)N[C@@H](CO)C(=O)N[C@@H](CO)C(N)=O | Streptococcus pyogenes | – | ATCC 19615 | 1 strain | – | MIC geometric mean | 8 µg/mL (≈ 2.73 µM) |
| COC1=CC(c2ccc[nH]2)=N/C1=C\c1[nH]c(C)cc1-c1ccc(Cl)cc1.Cl | Plasmodium yoelii | – | CF1 mice | oral, 25 mg/kg daily for 4 days, day 5 | relative to: vehicle | parasitaemia reduction | 100% |
| [O-][N+]1=C(c2ccc(Cl)cc2)C2=NCCN2c2ccccc21 | Prevotella spp. | bacterial growth | – | – | – | MIC50 | ≤ 0.06 µg/mL |
| Cn1c(=O)ccc2ccc(F)c(CCNC[C@H]3CN(c4cnc5c(n4)NC(=O)CO5)C(=O)O3)c21 | Salmonella sp. | – | – | – | – | MIC50 | 0.12 µg/mL (≈ 0.256 µM) |
